# Assay results from different studies.
# A part holds a random share of what one study measured. Substitutions count along the parent as printed.
# UniProt P46734, sequence (whole entry, looked up): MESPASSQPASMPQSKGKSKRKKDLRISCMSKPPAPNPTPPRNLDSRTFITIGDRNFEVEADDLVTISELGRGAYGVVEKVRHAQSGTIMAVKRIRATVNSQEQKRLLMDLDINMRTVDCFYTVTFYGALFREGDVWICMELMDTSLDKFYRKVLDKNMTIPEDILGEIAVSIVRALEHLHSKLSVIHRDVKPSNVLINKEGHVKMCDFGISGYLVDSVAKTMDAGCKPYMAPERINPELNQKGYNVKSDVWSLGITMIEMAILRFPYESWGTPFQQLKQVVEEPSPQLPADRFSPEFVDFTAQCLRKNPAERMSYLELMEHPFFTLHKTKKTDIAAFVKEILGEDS
# UniProt Q9Y2U5, sequence (whole entry, looked up): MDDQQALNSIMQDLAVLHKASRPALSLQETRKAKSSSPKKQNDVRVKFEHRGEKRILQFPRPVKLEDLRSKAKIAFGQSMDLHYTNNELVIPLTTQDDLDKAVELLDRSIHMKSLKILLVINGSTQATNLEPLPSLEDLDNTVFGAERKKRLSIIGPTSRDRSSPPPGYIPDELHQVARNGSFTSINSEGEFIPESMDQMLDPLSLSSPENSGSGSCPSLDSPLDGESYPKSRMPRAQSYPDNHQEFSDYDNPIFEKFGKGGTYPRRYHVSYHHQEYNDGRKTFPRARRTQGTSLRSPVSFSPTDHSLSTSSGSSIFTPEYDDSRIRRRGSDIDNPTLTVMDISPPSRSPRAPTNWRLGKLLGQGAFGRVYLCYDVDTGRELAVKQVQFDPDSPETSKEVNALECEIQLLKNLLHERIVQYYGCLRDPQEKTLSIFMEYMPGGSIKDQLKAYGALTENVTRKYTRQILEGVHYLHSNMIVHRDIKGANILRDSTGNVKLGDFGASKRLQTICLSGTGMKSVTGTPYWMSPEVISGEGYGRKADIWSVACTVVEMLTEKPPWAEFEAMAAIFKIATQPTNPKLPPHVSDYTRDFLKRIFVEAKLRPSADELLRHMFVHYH
# UniProt Q02779, sequence (whole entry, looked up): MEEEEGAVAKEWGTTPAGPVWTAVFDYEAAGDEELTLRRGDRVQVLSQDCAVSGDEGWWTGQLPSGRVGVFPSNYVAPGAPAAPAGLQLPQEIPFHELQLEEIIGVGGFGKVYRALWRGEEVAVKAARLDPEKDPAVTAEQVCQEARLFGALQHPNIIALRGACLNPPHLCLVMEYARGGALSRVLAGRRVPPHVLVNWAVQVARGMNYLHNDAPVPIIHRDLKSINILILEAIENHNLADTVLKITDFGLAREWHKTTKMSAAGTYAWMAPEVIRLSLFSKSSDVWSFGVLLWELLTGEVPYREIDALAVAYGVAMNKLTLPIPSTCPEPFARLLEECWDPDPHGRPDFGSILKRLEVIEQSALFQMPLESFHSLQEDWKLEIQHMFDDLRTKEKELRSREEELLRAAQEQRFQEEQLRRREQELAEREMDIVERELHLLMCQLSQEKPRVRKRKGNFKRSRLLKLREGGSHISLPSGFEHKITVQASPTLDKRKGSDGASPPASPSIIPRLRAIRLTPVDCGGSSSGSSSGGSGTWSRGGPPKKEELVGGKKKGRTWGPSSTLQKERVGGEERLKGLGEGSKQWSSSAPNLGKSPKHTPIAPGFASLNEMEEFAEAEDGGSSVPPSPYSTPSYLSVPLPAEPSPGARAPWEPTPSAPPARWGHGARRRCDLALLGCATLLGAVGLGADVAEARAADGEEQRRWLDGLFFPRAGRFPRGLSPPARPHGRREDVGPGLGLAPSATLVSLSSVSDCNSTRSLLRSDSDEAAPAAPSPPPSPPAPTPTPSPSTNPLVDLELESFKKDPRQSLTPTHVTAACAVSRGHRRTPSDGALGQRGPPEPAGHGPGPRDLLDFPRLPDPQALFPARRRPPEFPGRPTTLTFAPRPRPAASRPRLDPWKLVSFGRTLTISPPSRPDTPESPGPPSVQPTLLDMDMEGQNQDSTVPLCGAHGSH
# UniProt Q9BYT3, sequence (whole entry, looked up): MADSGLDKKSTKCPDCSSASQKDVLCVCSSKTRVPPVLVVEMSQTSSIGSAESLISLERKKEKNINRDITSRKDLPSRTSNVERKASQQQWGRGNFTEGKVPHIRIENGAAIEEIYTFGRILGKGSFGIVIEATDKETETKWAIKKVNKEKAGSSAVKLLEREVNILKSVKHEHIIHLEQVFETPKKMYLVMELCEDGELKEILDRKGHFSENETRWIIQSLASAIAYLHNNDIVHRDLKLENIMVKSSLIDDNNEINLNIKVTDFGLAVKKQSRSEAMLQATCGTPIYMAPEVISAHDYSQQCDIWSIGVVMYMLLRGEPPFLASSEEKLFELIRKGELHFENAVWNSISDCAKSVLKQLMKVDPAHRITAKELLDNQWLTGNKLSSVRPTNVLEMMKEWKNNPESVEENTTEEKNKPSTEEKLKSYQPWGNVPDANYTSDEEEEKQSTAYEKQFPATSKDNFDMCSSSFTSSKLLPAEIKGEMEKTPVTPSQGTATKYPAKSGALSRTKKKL
# UniProt Q96D53, sequence (whole entry, looked up): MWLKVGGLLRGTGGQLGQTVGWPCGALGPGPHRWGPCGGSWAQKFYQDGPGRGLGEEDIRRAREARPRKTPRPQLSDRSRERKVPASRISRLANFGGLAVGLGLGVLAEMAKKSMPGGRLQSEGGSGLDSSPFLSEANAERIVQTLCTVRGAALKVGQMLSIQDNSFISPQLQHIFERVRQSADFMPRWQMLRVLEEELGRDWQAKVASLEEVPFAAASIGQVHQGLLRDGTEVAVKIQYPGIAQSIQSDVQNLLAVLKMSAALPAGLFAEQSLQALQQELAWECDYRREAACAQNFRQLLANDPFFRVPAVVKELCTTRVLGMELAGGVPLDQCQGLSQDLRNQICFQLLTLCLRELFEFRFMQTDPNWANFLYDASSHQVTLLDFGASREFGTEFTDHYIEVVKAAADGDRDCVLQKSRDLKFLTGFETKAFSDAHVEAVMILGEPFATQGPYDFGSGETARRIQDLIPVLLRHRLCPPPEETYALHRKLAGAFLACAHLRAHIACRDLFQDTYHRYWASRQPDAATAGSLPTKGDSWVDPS
# UniProt Q9Y243, sequence (whole entry, looked up): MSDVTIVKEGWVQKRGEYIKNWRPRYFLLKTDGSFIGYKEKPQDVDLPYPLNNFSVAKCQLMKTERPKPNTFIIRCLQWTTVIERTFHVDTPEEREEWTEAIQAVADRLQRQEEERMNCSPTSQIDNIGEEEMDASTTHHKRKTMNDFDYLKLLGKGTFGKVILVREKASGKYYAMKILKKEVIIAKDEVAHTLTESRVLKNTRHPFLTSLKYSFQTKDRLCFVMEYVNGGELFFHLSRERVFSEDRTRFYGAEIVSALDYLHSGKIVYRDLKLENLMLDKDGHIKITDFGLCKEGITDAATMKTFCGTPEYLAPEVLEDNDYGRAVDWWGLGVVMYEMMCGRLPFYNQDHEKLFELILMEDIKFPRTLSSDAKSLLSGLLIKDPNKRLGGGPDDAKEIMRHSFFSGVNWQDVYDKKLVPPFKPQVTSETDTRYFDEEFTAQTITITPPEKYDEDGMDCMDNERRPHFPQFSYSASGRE
# UniProt P23458, sequence (whole entry, looked up): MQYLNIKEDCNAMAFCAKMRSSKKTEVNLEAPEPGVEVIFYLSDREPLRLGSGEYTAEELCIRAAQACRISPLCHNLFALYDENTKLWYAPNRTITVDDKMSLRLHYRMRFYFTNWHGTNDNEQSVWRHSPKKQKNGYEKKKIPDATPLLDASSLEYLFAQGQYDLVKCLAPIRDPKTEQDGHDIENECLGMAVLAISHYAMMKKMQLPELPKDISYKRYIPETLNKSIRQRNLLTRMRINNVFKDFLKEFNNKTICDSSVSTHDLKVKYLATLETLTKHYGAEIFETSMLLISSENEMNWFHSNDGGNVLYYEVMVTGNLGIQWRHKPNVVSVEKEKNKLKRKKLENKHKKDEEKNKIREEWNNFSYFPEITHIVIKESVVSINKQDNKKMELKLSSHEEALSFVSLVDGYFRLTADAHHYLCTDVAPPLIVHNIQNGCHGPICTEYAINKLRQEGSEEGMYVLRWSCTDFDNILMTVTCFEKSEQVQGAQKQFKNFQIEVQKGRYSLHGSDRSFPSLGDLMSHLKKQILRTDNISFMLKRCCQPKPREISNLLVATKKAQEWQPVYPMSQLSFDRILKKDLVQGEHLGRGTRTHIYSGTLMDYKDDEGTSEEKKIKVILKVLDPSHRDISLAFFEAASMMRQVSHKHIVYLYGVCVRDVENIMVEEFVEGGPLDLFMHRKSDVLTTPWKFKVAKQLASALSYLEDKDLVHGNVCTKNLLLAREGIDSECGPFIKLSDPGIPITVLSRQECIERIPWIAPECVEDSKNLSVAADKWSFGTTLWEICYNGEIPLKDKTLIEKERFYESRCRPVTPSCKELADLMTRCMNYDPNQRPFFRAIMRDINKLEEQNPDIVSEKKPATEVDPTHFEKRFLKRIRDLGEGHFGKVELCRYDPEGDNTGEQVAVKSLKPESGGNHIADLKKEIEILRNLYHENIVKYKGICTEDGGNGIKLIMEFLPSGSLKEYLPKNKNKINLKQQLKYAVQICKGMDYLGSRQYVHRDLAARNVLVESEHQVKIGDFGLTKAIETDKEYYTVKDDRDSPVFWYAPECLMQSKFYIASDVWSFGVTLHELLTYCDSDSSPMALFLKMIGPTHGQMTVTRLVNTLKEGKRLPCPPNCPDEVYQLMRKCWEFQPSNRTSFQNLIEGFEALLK

# Series 1
# Target: Serine/threonine-protein kinase STK11 (STK11, Homo sapiens, UniProt Q15831)
# Observed: enzyme activity
# Mode: inhibitor
# Concentration: 0.5 µM
# Relative to: control
# Target sequence (Q15831 1-433): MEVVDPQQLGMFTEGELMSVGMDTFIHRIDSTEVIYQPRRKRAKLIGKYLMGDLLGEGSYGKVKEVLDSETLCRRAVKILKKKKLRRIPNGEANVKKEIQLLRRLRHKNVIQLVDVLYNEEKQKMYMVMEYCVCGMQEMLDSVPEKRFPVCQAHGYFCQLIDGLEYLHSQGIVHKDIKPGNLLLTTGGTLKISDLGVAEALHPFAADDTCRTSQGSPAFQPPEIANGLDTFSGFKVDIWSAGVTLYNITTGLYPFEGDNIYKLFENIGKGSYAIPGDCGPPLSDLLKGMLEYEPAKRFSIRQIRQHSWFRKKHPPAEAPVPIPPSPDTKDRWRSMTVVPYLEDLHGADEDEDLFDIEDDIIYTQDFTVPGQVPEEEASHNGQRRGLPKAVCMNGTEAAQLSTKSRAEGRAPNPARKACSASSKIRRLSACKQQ
Compound,remaining activity
Cc1nc(Nc2ncc(C(=O)Nc3c(C)cccc3Cl)s2)cc(N2CCN(CCO)CC2)n1,108%
C[S+]([O-])c1ccc(-c2nc(-c3ccncc3)c(-c3ccc(F)cc3)[nH]2)cc1 (stereo not drawn),81.6%
CS(=O)(=O)CCNCc1ccc(-c2ccc3ncnc(Nc4ccc(OCc5cccc(F)c5)c(Cl)c4)c3c2)o1,106%

# Series 2
# Target: Centromere-binding protein 1, full length, His-tagged (CBF1, Saccharomyces cerevisiae, UniProt P17106, residues 1-351)
# UniProt P17106, sequence (whole entry, looked up): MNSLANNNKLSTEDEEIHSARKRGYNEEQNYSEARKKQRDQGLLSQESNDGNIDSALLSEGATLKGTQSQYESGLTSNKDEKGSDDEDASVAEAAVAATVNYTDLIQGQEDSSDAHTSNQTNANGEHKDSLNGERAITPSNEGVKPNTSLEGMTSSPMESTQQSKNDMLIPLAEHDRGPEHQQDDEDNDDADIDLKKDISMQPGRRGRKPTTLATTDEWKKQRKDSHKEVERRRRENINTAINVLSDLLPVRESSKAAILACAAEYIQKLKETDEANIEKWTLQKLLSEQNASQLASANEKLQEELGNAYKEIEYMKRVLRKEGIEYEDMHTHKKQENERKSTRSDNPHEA
# Technique: competition protein-binding microarray
# Molecule type: double-stranded DNA, one strand shown
# Matrix: in vitro
# Concentration: 2 µM
# Notes: whole 60-bp probe, lowest competitor level
# Together with: Pho4 competitor, 0.05 µM
# Direction: higher = stronger binding
Strand,fluorescence intensity [a.u.]
TTCCCAGTGAAATTTCACGTGATGGAATCTGATGAAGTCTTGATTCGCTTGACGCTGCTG,2250
CTTCTGTAAATTTGTACTGTGGGTGGACGCGCCCCGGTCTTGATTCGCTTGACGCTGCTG,80.3
TGCATATTCGTCAGTGACGTGCAAAATTCTTTTGAAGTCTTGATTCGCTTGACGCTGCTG,93.2
ATGTTCCTGAGGTTCCACGTGCAAAGCTAGAAGAAAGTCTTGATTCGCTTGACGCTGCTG,981
GTATTGGATAGCCATCACGTTGTCGAACATCCGGCTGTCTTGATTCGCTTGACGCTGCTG,379
AGGCGAGAAGTTCCACGCGTGTGAATTCCCCGGATGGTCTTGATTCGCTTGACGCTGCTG,80.5
CTTCTGTAAATTTAGCACGTGTTTTGACGCGCCCCGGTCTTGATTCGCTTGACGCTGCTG,2920
TTAGGTGTCTGGCTCAGCGTGAGAAGATCTTAGAAGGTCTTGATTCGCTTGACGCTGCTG,76

# Series 3
# Target: CEBPE, bZIP domain (human)
# Technique: DHFR protein complementation
# Matrix: yeast
# Notes: single substitutions, most at no-binding floor
# Relative to: wild-type JUN-FOS pair
# Direction: higher = stronger binding
# Parent: JUN, bZIP domain (human); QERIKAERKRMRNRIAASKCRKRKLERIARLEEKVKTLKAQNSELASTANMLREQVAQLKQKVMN; partner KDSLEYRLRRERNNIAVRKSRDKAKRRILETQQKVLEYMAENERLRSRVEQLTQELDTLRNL
Change,binding fitness
E44C,-1.34 natural log
E54V,-1.33 natural log
N42A,-1.43 natural log
V35Q,-1.41 natural log
K39V,-1.24 natural log
R53A,-0.668 natural log
R53L,-1.14 natural log
L52A,-1.52 natural log

# Series 4
# Compound: C[C@H](c1ccc(F)cc1)N(Cc1cccc(C(=O)O)c1)C(=O)c1cnc2ccccc2c1
# Observed: cell-free assay
# Technique: competition with immobilised ligand
# Concentration: 1 µM
target,remaining binding [%]
"STK25 (Homo sapiens, UniProt O00506)",100
"MAPK13 (Homo sapiens, UniProt O15264)",95
"Tyrosine-protein kinase JAK1, JH1 (JAK1, Homo sapiens, UniProt P23458)",100
"PAK4 (Homo sapiens, UniProt O96013)",100
"MAP3K10 (Homo sapiens, UniProt Q02779)",100
"COQ8B (Homo sapiens, UniProt Q96D53)",86
"MAP2K3 (Homo sapiens, UniProt P46734)",91
"AKT3 (Homo sapiens, UniProt Q9Y243)",100
"MAP3K2 (Homo sapiens, UniProt Q9Y2U5)",100
"PRKD1 (Homo sapiens, UniProt Q15139)",100
"STK33 (Homo sapiens, UniProt Q9BYT3)",100
"TIE1 (Homo sapiens, UniProt P35590)",93
"PIK3CA (Homo sapiens, UniProt P42336, C420R)",100

# Other studies, line by line
Compound,target,observed,technique,endpoint,result
CN1CCC[C@H]1COc1nc2c(c(N3CCN(S(C)(=O)=O)[C@@H](CC#N)C3)n1)CCN(c1cccc3cccc(Cl)c13)C2,"GTPase KRas (KRAS, Homo sapiens, UniProt P01116, G13D)",target engagement in cells,BRET,IC50,820 nM

# Excerpt of the above (series 2):
Strand,fluorescence intensity [a.u.]
CTTCTGTAAATTTGTACTGTGGGTGGACGCGCCCCGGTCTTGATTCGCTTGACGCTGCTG,80.3
TGCATATTCGTCAGTGACGTGCAAAATTCTTTTGAAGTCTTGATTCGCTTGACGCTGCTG,93.2
ATGTTCCTGAGGTTCCACGTGCAAAGCTAGAAGAAAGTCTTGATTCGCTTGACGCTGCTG,981
